Assay results pooled from the literature.
Every numbered part comes from another study and shows a few of its results, in no order.
UniProt Q5BJF2, sequence (whole entry, looked up): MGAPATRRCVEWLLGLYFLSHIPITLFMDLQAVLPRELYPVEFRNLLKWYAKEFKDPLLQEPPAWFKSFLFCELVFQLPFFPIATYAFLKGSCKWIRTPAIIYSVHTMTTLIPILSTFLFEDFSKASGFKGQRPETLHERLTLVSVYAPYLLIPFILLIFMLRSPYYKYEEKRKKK
UniProt P31751, sequence (whole entry, looked up): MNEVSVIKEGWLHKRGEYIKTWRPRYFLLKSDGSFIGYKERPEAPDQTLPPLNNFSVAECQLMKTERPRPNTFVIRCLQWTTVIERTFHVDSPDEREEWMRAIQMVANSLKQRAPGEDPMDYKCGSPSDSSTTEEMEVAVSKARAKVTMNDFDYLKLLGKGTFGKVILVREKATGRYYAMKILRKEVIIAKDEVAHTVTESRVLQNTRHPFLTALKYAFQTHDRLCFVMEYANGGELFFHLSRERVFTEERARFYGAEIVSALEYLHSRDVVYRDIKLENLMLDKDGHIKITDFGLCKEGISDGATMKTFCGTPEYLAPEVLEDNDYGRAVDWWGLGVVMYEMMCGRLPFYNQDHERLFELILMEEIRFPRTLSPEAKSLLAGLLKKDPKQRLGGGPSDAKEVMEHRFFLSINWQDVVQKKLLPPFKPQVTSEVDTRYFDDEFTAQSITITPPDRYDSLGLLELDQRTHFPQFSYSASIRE
UniProt P32298, sequence (whole entry, looked up): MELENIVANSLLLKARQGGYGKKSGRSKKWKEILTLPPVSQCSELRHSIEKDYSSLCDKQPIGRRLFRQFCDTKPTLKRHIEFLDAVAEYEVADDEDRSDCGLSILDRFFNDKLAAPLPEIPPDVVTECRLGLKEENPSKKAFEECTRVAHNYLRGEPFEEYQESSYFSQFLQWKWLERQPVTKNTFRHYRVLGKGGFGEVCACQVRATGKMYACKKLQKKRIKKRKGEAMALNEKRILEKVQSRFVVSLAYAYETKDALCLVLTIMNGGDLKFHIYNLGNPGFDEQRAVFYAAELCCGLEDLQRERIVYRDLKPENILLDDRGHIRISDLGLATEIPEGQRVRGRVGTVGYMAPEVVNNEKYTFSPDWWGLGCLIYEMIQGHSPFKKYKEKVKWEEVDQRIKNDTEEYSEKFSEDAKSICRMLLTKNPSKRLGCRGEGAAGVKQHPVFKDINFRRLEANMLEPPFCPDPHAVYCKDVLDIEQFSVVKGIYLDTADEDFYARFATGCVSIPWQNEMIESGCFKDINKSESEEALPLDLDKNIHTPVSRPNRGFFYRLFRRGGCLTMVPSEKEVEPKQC
UniProt P50750, sequence (whole entry, looked up): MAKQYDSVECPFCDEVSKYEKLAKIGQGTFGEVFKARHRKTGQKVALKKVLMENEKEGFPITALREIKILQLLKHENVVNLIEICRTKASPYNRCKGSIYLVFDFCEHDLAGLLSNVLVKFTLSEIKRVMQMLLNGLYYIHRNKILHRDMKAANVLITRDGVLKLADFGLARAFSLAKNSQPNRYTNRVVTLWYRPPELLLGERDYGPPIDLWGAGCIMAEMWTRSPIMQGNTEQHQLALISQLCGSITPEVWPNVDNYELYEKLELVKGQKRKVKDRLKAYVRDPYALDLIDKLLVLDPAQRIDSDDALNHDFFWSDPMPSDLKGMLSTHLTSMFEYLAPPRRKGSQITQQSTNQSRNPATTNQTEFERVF
UniProt Q15759, sequence (whole entry, looked up): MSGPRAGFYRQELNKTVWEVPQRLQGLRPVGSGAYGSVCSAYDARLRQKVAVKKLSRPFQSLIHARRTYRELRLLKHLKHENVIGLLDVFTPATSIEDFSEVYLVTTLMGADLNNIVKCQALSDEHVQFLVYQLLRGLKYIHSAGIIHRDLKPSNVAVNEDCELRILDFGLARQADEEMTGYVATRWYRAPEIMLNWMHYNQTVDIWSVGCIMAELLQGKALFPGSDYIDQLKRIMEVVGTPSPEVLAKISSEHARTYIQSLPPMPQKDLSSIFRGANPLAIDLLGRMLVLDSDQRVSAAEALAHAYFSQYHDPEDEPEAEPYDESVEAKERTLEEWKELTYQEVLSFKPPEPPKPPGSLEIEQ
UniProt O75676, sequence (whole entry, looked up): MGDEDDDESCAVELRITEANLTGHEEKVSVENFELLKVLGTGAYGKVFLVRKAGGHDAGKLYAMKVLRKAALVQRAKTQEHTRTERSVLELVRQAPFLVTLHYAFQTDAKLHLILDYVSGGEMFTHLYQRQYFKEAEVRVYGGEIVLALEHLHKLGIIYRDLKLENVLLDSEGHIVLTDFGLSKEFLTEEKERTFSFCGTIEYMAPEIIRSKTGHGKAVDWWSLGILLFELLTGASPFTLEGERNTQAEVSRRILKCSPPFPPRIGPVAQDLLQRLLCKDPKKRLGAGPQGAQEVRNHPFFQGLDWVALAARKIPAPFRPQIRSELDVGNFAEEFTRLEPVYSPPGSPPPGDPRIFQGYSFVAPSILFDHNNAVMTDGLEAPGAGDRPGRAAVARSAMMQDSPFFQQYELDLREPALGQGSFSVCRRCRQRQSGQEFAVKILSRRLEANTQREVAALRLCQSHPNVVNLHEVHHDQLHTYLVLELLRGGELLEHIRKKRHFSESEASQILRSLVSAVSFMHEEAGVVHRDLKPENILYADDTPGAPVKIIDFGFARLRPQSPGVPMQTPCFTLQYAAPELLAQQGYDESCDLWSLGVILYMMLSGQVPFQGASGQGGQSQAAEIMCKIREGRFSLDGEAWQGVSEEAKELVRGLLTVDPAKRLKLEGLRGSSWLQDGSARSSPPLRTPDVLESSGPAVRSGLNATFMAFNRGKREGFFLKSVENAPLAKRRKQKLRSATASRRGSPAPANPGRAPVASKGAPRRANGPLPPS
UniProt P51956, sequence (whole entry, looked up): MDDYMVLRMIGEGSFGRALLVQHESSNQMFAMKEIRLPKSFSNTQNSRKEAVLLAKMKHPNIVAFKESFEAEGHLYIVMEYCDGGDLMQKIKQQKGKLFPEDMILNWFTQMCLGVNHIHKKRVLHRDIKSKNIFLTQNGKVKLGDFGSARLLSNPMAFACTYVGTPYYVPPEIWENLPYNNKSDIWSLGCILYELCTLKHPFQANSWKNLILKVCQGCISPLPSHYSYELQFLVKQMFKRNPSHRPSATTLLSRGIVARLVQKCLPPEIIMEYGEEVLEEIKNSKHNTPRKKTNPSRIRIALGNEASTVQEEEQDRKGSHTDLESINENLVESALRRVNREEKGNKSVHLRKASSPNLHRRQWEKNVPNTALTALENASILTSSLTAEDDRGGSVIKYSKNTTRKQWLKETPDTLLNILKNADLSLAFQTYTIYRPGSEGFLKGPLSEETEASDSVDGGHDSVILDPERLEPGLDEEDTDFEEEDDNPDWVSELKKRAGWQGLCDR
UniProt P35348, sequence (whole entry, looked up): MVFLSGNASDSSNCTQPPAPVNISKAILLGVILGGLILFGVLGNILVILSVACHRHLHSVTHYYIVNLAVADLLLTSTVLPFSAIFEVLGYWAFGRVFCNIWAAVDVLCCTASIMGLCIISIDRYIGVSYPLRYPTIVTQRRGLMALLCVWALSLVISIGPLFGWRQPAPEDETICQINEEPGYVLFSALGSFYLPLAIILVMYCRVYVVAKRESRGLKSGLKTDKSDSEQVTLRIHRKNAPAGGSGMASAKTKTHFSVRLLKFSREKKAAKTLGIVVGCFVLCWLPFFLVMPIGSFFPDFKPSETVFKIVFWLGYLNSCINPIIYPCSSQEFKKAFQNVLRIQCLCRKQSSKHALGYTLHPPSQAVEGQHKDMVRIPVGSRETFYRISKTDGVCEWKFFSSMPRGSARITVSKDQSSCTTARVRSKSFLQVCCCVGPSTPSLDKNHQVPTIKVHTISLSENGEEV
UniProt P06493, sequence (whole entry, looked up): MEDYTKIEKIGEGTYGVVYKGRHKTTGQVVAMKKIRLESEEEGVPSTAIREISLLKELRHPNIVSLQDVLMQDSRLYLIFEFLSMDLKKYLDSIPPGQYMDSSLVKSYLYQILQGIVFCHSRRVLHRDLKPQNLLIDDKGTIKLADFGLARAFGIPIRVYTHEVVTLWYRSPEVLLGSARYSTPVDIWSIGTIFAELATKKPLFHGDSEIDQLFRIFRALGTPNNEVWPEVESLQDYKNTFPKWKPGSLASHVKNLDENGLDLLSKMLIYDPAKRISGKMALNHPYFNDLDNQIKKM

Block 1 — technique: RNA Bind-n-Seq; molecule type: RNA; medium: in vitro; tested at: 200 nM; setting: whole 134-nt RNA, ends assumed; added: 150 mM KCl; relative to: input library; direction: higher = stronger binding; measurement: log2 enrichment
Target: Fragile X messenger ribonucleoprotein 1, C-terminal low-complexity region (Fmr1, Mus musculus, UniProt P35922)
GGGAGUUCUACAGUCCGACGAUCGUCCUGUGCUACACAUCGUAUGUACCGAAUCGGAAAAAAGGAAAAAAGGGAAAAAAGGGAAAGUAUUAUGUUACGCCGUUCGGAUCUGCAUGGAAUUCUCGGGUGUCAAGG: -0.789
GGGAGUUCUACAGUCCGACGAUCUGUCCCAGGGAACGCCGGUGCAGAUGUGCUUCUUGUGGGCUCAGAGGCCUUCGUGCUGCUGGACGGGCAGGAGCUGACGCCUCGCUGGACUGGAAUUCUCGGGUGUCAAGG: -1.5
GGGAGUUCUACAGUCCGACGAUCCCUGUGCUACACAUCGUAUGUACCGAAUCGGGGAAAAAAAGGGGAAAAAAAGGGGAGGGGAAAGUAUUAUGUUACGCCGUUCGGAUCUGCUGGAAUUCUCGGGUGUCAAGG: 0.114
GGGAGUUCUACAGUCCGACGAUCUGUCUGGUGACAAGGAAGAGGAUGCUCCUCAUAGAGAAGAUUACUUUGAGCCCAUUUCUCCUGAUCGGAAUUCUGUUCCCCAGGAAGGGCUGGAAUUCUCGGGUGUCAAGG: -2.09
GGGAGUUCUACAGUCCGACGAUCGCUCGCCCGAGCUCAGAGGUGAUCAAAGACGCCAACUUGUACAUCAGCGGGCUCCCGCGGACCAUGACCCAGAAGGACGUAGAAGACAUGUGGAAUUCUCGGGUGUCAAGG: -0.632
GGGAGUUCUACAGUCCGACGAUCUCAAGUCCUGUGCUACACAUCGUAUGUACCGAAUCGGAAAAAGGUGGAAAAAGGAAAGUAUUAUGUUACGCCGUUCGGAUCUGCACUUCCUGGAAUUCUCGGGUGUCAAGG: -0.494
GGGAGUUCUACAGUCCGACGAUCUGUCCCUGGUGGCAUGCGGGGAGGAAGAGGUGGCCUCAUGGAUCGUGGUGGUCCCGGUGGAAUGUUCAGAGGUGGCCGUGGUGGAGACAGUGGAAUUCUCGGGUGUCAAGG: -0.122
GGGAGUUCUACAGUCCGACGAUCCUCAAGUCCUGUGCUACACAUCGUAUGUACCGAAUCGGAGGAAAGGUUUUUGGAAAGUAUUAUGUUACGCCGUUCGGAUCUGCACUUCCAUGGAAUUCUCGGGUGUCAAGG: -0.477

Block 2 — observed: enzyme activity; action: inhibitor; tested at: 0.5 µM; relative to: control; measurement: remaining activity
SMILES: CC(C)c1nn(-c2c(Cl)cccc2Cl)c2nc(Cc3ccc(OCCO)cc3)[nH]c(=O)c12
DCLK2 (Homo sapiens, UniProt Q8N568): 95.9%
MINK1 (Homo sapiens, UniProt Q8N4C8): 97.1%
RPS6KA4 (Homo sapiens, UniProt O75676): 95.3%
Cyclin-dependent kinase 9, with cyclin K (CDK9, Homo sapiens, UniProt P50750): 21.6%
MAPK1 (Homo sapiens, UniProt P28482): 91.7%
Cyclin-dependent kinase 1, with cyclin A (CDK1, Homo sapiens, UniProt P06493): 7.71%
DDR2 (Homo sapiens, UniProt Q16832): 96.3%
MAPK11 (Homo sapiens, UniProt Q15759): 81.8%
NEK3 (Homo sapiens, UniProt P51956): 87.3%
PRKG2 (Homo sapiens, UniProt Q13237): 61.6%
AKT2 (Homo sapiens, UniProt P31751): 92.4%
GRK4 (Homo sapiens, UniProt P32298): 97.3%
KDR (Homo sapiens, UniProt P35968): 105%

Block 3 — observed: binding; technique: radioligand binding; tested at: 10 µM; measurement: inhibition
Compound: CCC(=O)N[C@@H]1CC[C@H](C(=O)N(C)c2ccc(-c3nc4ccccc4o3)cc2)C1
ADRA1A (Homo sapiens, UniProt P35348): 19.5%
TMEM97 (Homo sapiens, UniProt Q5BJF2): 62.9%
ADRB2 (Homo sapiens, UniProt P07550): 0.247%

Block 4 — technique: protein binding microarray; molecule type: double-stranded DNA, one strand shown; medium: in vitro; tested at: not given; relative to: not given; direction: higher = stronger binding; measurement: E-score
Target: Histone acetyltransferase KAT6A, winged helix 2, GST fusion (KAT6A, Homo sapiens, UniProt Q92794, residues 85-181)
Setting: 8-mer, flanks averaged, mean of 2 arrays, mostly near background
Construct (chain): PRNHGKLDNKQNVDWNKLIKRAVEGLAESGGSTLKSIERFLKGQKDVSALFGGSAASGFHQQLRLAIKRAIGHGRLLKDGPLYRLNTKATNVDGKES
AGTTCTTC: 0.0548
CATGCTTA: -0.0208
ACAGGAAG: -0.0622
AACCGCGT: 0.127
GGCGTCCC: 0.109
GCTTCCCC: -0.0994
ACTACAGT: -0.0829
AGTACCGA: -0.0688

Other studies, line by line
PhoQ, residues 284 288 289 292 302 303 AGCYAI  fold induction (PhoP, residues 12 14 15 18 19 NQFFI (Escherichia coli, UniProt P23836); Sort-seq, refers to: YFP reporter; E. coli; PhoQ-PhoP variant library, added: 10 µM Mg2+; relative to: high Mg2+ state, higher = stronger signaling): 2.73

Excerpt of the above (block 2):
MINK1 (Homo sapiens, UniProt Q8N4C8): 97.1%
KDR (Homo sapiens, UniProt P35968): 105%
Cyclin-dependent kinase 1, with cyclin A (CDK1, Homo sapiens, UniProt P06493): 7.71%
MAPK11 (Homo sapiens, UniProt Q15759): 81.8%
NEK3 (Homo sapiens, UniProt P51956): 87.3%
